Results collected from several papers.
Lines come from different studies, so protocols differ. “And” joins repeats or separate records; there may be more than shown. ± marks the error that the study gave.
Aryl hydrocarbon receptor: Aryl hydrocarbon receptor (Danio rerio, UniProt Q9YGV3)

With `CN1C(=O)/C(=C2\Nc3ccccc3\C2=N/O)c2ccc(Br)cc21` the fold change was 25.3 (Aryl hydrocarbon receptor; reporter gene, agonist, luciferase reporter; ZF-4; 100 µM; relative to: vehicle control).
`CCCCCCCCCCCCC/C=C/[C@@H](O)[C@H](CO)NC(=O)CCCCCCCCCCCCCCCCCCCCCCC`: “lipid fraction bound” 2.5% (Protein SET (SET, Homo sapiens, UniProt Q01105); lipid binding, GFP pull-down LC-MS/MS; A549 overexpressing GFP-tagged protein; ER-targeted construct; relative to: eluate plus flow-through).
With `C1=C/COCc2cc(ccc2OCCN2CCCC2)Nc2nccc(n2)-c2cccc(c2)COC/1` the remaining binding was 43% (Tyrosine-protein kinase ABL1 (ABL1, Homo sapiens, UniProt P00519, F317L); 0.1 µM; relative to: DMSO control).
For `O=C(c1ccc(Nc2ncc(Cl)c(-c3cc4ccccc4s3)n2)cc1)N1CCC(N2CCCC2)CC1`, the ligand efficiency was 0.3 (Protein kinase 6 (Plasmodium falciparum, UniProt Q8IDW1); binding, KinaseSeeker split luciferase).
With `O=C(COc1ccc(C2CCC(=O)NC2=O)cc1)NCCCCCCN1CCc2c(c3ccccc3n2Cc2ccc(C(=O)NO)cc2)C1` (stereo not drawn) the degradation was 30% (Protein deacetylase HDAC6 (HDAC6, Homo sapiens, UniProt Q9UBN7); degrader, western blot; MM1.S; 5 µM, 24 h).
The fold change of `Cc1cccc2c1ccc1cc(C(C)C)ccc12` is reported as 1.55 (Aryl hydrocarbon receptor; reporter gene, agonist, luciferase reporter; ZF-4; 370.37 µM; relative to: vehicle control).
With `O=C(c1ccc(C(=O)N2CCC(N3CCCC3)CC2)c(Nc2ccccc2)c1)N1CCC(N2CCCC2)CC1` the diffusion coefficient was 0.146 µm2/s (Lethal(3)malignant brain tumor-like protein 3, MBT domains (Homo sapiens, UniProt Q96JM7); FRAP; human cells; 0.01 µM).
Under “inhibition time constant”, `c1ccc(C(NCc2cccnc2)(c2ccccc2)c2ccccc2)cc1` is recorded as 70 ms (Potassium voltage-gated channel subfamily KQT member 1 (KCNQ1, Homo sapiens, UniProt P51787); patch clamp; 300 pM, at +60 mV).
`C=CC(=O)N1CCC(COCC(=O)N2CCN(c3nc(-c4cnc(N)nc4C(F)F)nc(N4CCOC[C@@H]4C)n3)CC2)CC1` gave a remaining binding of 74% (Serine/threonine-protein kinase Nek9 (NEK9, Homo sapiens, UniProt Q8TD19); KINOMEscan; 1 µM).
`O=C(O)C1CCCNC1` (stereo not drawn) — result for “normalised MST signal”: 0.0401 (Sodium- and chloride-dependent taurine transporter (SLC6A6, Homo sapiens, UniProt P31641, G62A); binding, microscale thermophoresis; 122 nM, room temperature, added: 50 nM labelled protein; higher = more binding).
The remaining binding of `C[C@@H]1CCN(c2nccc(-c3cnn4ncccc34)n2)C1` is reported as 60% and 100% (Tyrosine-protein kinase ABL1 (ABL1, Homo sapiens, UniProt P00519, T315I); KINOMEscan; 1 µM).
`O=C(Nc1cccc2[nH]ccc12)c1ccccc1` — result for fibril formation: “inhibited” (Alpha-synuclein (SNCA, Homo sapiens, UniProt P37840); ThT kinetics; concentration not given, added: SNCA 2 µM).
With `CC(C)C[C@H](NC(=O)[C@H](CCc1ccccc1)NC(=O)CN1CCOCC1)C(=O)N[C@@H](Cc1ccccc1)C(=O)N[C@@H](CC(C)C)C(=O)[C@@]1(C)CO1` the reversibility was 3 ± 1% (Proteasome component C5/PSMB8 (Homo sapiens, UniProt P20618+P28062); inhibitor, jump dilution; 1 h).
`Cc1ccc(Cn2nc3c4ccccc4n(Cc4ccc(-c5cnn(C)c5)cc4F)cc-3c2=O)c(C)c1`: “maximal ACh response” 74% (Muscarinic acetylcholine receptor M1 (CHRM1, Homo sapiens, UniProt P11229); calcium mobilization, positive allosteric modulator; CHO-K1 cells; 30 µM, added: submaximal acetylcholine).
`Cc1ccc(N2CC(C(N)=O)CC2=O)cc1` (stereo not drawn): “log fold enrichment” 0 (DDB1- and CUL4-associated factor 7 (Homo sapiens, UniProt P61962); binding, affinity selection mass spectrometry; relative to: other proteins in batch).

Repeated from above:
`CCCCCCCCCCCCC/C=C/[C@@H](O)[C@H](CO)NC(=O)CCCCCCCCCCCCCCCCCCCCCCC`: “lipid fraction bound” 2.5% (Protein SET (SET, Homo sapiens, UniProt Q01105); lipid binding, GFP pull-down LC-MS/MS; A549 overexpressing GFP-tagged protein; ER-targeted construct; relative to: eluate plus flow-through).
`Cc1ccc(Cn2nc3c4ccccc4n(Cc4ccc(-c5cnn(C)c5)cc4F)cc-3c2=O)c(C)c1`: “maximal ACh response” 74% (Muscarinic acetylcholine receptor M1 (CHRM1, Homo sapiens, UniProt P11229); calcium mobilization, positive allosteric modulator; CHO-K1 cells; 30 µM, added: submaximal acetylcholine).
